# Experimental data collected from several papers.
# Parts stem from different laboratories: compare values within a part only. Changes are numbered by the printed parent chain.

# Block 1
# Target: UBE2D4 UBC core domain (UniProt Q9Y2X8)
# Method: yeast two-hybrid
# Sample: yeast
# Notes: mostly zero background
# Baseline: not given
# Direction: higher = stronger interaction
# B1: PRKN RING domain (UniProt O60260); chain LIATNSRNITCITCTDVRSPVLVFQCNSRHVICLDCFHLYCVTRLNDRQFVHDPQLGYSLPCVAGCPNSLIKELHH
# B2: RNF135 RING domain (UniProt Q8IUD6); chain PVWLAEDDLGCIICQGLLDWPATLPCGHSFCRHCLEALWGARDARRWACPTCRQGAAQQPHLR
# Target sequence (chain): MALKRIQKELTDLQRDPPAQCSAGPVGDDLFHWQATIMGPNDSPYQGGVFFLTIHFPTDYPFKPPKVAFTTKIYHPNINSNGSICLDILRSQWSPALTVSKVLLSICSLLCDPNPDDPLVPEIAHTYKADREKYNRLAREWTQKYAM
Sequence,lacZ reporter activity
B1 (PRKN RING domain),0
B2 (RNF135 RING domain),0
ALDRLEKLLRCSRCTNILREPVCLGGCEHIFCSNCVSDCIGTGCPVCYTPAWIQDLKI (BARD1 RING domain (UniProt Q99728)),0

# Block 2
# Target: HLA class I histocompatibility antigen, A alpha chain, allele A*25:01 (Homo sapiens, UniProt P04439)
# Read-out: peptide-MHC binding
# Form: peptide
# Tested at: concentration not given
Sequence,binding
MAVTAAPYI,inactive
YYFSYPLFV,inactive
FTFERSKIK,inactive

# Block 3
# Partner: ARF17 (Arabidopsis thaliana, UniProt Q84WU6)
# Method: two-hybrid
# Notes: weak activation fusion
# Baseline: out of 4 tests
# Direction: higher = firmer interaction
# B3: IAA34 (Arabidopsis thaliana, UniProt Q9C5X0); chain MYCSDPPHPLHLVASDKQQKDHKLILSWKKPTMDSDPLGVFPNSPKYHPYYSQTTEFGGVIDLGLSLRTIQHEIYHSSGQRYCSNEGYRRKWGYVKVTMDGLVVGRKVCVLDHGSYSTLAHQLEDMFGMQSVSGLRLFQMESEFCLVYRDEEGLWRNAGDVPWNEFIESVERLRITRRNDAVLPF
# B4: IAA31 (Arabidopsis thaliana, UniProt Q8H174); chain MEVSNSCSSFSSSSVDSTKPSPSESSVNLSLSLTFPSTSPQREARQDWPPIKSRLRDTLKGRRLLRRGDDTSLFVKVYMEGVPIGRKLDLCVFSGYESLLENLSHMFDTSIICGNRDRKHHVLTYEDKDGDWMMVGDIPWDMFLETVRRLKITRPERY
# B5: ARF9 519-638 (Arabidopsis thaliana, UniProt Q9XED8); chain SSSTRSRTKVQMQGVPVGRAVDLNALKGYNELIDDIEKLFDIKGELRSRNQWEIVFTDDEGDMMLVGDDPWPEFCNMVKRIFIWSKEEVKKMTPGNQLRMLLREVETTLTTTSKTDNHSN
# B6: ARF1 538-665 (Arabidopsis thaliana, UniProt Q8L7G0); chain SRQIRSCTKVHMQGSAVGRAIDLTRSECYEDLFKKLEEMFDIKGELLESTKKWQVVYTDDEDDMMMVGDDPWNEFCGMVRKIFIYTPEEVKKLSPKNKLAVNARMQLKADAEENGNTEGRSSSMAGSR
# B7: ARF10 575-693 (Arabidopsis thaliana, UniProt Q9SKN5); chain LQGLETGHCKVFMESEDVGRTLDLSVIGSYQELYRKLAEMFHIEERSDLLTHVVYRDANGVIKRIGDEPFSDFMKATKRLTIKMDIGGDNVRKTWITGIRTGENGIDASTKTGPLSIFA
# B8: ARF7 1030-1164 (Arabidopsis thaliana, UniProt P93022); chain PAQTQRMRTYTKVQKRGSVGRSIDVNRYRGYDELRHDLARMFGIEGQLEDPQTSDWKLVYVDHENDILLVGDDPWEEFVNCVQSIKILSSAEVQQMSLDGNFAGVPVTNQACSGGDSGNAWRGHYDDNSATSFNR
# B9: ARF8 699-811 (Arabidopsis thaliana, UniProt Q9FGV1); chain NSSNQTKNFVKVYKSGSVGRSLDISRFSSYHELREELGKMFAIEGLLEDPLRSGWQLVFVDKENDILLLGDDPWESFVNNVWYIKILSPEDVHQMGDHGEGSGGLFPQNPTHL
# B10: ARF6 790-935 (Arabidopsis thaliana, UniProt Q9ZTX8); chain SENPQSNTFVKVYKSGSFGRSLDISKFSSYHELRSELARMFGLEGQLEDPVRSGWQLVFVDRENDVLLLGDDPWPEFVSSVWCIKILSPQEVQQMGKRGLELLNSAPSSNNVDKLPSNGNCDDFGNRSDPRNLGNGIASVGGSFNY
# Target sequence (chain): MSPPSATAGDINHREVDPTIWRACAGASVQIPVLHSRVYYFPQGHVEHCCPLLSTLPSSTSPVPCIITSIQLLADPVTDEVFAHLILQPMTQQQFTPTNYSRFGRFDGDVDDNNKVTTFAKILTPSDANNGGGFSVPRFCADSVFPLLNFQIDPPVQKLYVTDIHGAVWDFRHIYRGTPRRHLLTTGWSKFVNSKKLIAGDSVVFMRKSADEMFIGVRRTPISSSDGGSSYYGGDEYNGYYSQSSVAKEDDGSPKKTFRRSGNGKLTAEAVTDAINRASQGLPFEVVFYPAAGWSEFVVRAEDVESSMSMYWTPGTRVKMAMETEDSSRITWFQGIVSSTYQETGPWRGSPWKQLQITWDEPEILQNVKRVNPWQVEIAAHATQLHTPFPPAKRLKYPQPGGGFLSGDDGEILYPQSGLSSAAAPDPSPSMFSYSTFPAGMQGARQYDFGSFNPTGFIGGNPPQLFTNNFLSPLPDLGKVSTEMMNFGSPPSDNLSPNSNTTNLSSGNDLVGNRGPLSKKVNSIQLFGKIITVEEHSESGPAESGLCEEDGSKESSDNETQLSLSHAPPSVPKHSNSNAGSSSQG
Sequence,positive tests
B3 (IAA34),1
B4 (IAA31),1
B5 (ARF9 519-638),1
B6 (ARF1 538-665),0
B7 (ARF10 575-693),0
B8 (ARF7 1030-1164),0
B9 (ARF8 699-811),0
B10 (ARF6 790-935),0

# Block 4
# Target: Histone acetyltransferase KAT6A, winged helix 2, GST fusion (KAT6A, Homo sapiens, UniProt Q92794, residues 85-181)
# Method: protein binding microarray
# Form: double-stranded DNA, one strand shown
# Sample: in vitro
# Tested at: not given
# Notes: 8-mer, flanks averaged, mean of 2 arrays, mostly near background
# Baseline: not given
# Direction: higher = stronger binding
# Target sequence (chain): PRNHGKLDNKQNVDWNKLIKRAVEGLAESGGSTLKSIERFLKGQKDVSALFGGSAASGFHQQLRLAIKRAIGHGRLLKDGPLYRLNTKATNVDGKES
Oligonucleotide,E-score
ATAGGTTG,-0.15
CCGTTTTA,-0.0179
ATGGTTCA,0.103
CCCGAGCA,0.0848
CGGCATTC,0.13
AGTTATCA,0.0183
ACTAAGGA,-0.00769
AGATTACA,0.0339

# Block 5
# Target: Max-binding protein MNT, bHLH-zipper, MAX partner unstated (MNT, Homo sapiens, UniProt Q99583, residues 220-300)
# Method: protein-binding microarray
# Form: double-stranded DNA, one strand shown
# Sample: in vitro
# Tested at: not given
# Notes: k-mer, scored over probes, only values ≥0.25
# Direction: higher = stronger binding
# Target sequence (chain): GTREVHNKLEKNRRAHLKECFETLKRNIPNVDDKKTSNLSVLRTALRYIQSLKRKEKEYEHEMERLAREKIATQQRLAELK
Oligonucleotide,E-score
CTCCCCAA,0.372
ACGCTTCA,0.278
ACATTGTG,0.262
ACACGTGC,0.495
CCACGAGC,0.36
AAGCGTGG,0.381
ACGTTGCC,0.31
ACATGTGA,0.466

# Block 6
# Target: CCND1, cyclin fold, Cln2 fusion (human)
# Method: yeast growth competition, sequencing
# Sample: yeast
# Notes: strong parent motif
# Baseline: not given
# Direction: higher = stronger binding
# Starting sequence: viral docking peptide; YKVKRRLVFGADD; partner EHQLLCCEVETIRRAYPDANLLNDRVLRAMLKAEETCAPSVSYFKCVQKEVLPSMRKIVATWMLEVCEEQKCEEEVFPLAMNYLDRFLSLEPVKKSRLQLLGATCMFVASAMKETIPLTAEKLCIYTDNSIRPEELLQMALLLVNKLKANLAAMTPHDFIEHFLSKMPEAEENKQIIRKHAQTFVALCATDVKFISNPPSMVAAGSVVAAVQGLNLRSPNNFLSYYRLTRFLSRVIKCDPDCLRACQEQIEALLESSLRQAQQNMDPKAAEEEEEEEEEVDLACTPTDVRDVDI
Variant,normalised enrichment score
YKVKRRLVYGADD [F9Y],0.528
YKVKRRLVFGHDD [A11H],2.16
YKVKVRLVFGADD [R5V],0.875
YKVRRRLVFGADD [K4R],2.95
YKVKNRLVFGADD [R5N],-0.152
YKVHRRLVFGADD [K4H],0.386
YKVKGRLVFGADD [R5G],-0.131
YKVKRRLVPGADD [F9P],-0.105
YKVKRHLVFGADD [R6H],0.463
YKVKRRPVFGADD [L7P],-0.00568
YKVKRMLVFGADD [R6M],1.07
YKVKTRLVFGADD [R5T],0.207
YKVKRRLVWGADD [F9W],0.396
YKVKDRLVFGADD [R5D],0.3
YKVKRRLVFDADD [G10D],4.45
YKVKRWLVFGADD [R6W],0.505
YKRKRRLVFGADD [V3R],0.277
YKVKRRVVFGADD [L7V],-0.112
YKVKRRCVFGADD [L7C],-0.423
YCVKRRLVFGADD [K2C],2.75
YKVKRILVFGADD [R6I],0.651
YKQKRRLVFGADD [V3Q],0.343
YKVKRRLVMGADD [F9M],-0.0366
YKVIRRLVFGADD [K4I],0.416
YKVKRCLVFGADD [R6C],1.21

# A few entries again (block 3):
Sequence,positive tests
B3 (IAA34),1
B4 (IAA31),1
B5 (ARF9 519-638),1
B6 (ARF1 538-665),0
B7 (ARF10 575-693),0
